Assay results collected from several papers.
Compare with care: the assays were run in different laboratories. Values joined by “and” are separate records of one study, mostly repeats; a detail may differ. Numbers after ± are the reported error.
BCHE: Cholinesterase (BCHE, Homo sapiens, UniProt P06276)
Chain of UniProt P06276 (whole entry, looked up): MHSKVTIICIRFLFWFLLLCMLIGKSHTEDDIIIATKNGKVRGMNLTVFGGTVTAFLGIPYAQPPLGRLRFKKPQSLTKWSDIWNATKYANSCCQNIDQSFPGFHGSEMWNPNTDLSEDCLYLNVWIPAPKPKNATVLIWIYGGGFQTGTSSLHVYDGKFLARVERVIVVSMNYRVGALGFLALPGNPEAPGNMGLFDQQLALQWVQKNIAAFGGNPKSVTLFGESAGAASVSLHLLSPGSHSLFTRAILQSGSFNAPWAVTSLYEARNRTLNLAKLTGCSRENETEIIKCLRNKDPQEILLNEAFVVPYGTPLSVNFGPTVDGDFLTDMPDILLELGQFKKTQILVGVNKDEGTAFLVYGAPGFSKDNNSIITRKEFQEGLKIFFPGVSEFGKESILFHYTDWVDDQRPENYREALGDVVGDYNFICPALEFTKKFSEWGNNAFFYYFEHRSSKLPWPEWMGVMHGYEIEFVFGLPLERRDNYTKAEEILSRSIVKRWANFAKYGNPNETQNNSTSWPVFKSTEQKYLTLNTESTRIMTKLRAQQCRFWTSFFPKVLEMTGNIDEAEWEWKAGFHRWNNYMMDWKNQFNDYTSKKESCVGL
RASA1 SH2 domains: Ras GTPase-activating protein 1, SH2 domains (RASA1, Homo sapiens, UniProt P20936)
Chain of UniProt P20936 (whole entry, looked up): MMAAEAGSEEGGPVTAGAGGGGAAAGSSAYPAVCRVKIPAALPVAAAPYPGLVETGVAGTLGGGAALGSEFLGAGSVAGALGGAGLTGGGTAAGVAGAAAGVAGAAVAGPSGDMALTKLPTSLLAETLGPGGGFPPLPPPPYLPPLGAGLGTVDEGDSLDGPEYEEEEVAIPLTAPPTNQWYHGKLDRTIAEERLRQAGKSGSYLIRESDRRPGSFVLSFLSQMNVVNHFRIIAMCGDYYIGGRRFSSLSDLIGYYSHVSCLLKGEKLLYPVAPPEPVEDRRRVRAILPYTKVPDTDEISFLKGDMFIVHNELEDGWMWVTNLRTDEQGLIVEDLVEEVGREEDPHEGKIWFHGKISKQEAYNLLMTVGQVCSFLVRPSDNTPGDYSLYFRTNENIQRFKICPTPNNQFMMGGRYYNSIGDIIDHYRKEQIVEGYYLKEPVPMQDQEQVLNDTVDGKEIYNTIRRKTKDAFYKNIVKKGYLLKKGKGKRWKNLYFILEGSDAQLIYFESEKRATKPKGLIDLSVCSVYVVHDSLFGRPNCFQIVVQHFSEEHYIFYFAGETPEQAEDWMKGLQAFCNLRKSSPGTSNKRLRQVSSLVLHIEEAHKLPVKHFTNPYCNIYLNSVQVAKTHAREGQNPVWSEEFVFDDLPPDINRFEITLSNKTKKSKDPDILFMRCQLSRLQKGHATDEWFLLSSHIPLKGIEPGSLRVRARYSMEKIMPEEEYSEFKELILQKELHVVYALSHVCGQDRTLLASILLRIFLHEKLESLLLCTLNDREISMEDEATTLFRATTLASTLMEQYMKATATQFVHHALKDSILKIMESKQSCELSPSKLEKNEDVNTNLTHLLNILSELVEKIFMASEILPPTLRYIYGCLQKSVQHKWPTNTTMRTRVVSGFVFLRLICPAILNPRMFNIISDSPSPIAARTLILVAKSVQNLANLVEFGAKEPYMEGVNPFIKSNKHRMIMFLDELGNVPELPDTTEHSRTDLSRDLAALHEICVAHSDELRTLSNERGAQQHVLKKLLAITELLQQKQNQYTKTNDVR
Chain of UniProt P51813 (whole entry, looked up): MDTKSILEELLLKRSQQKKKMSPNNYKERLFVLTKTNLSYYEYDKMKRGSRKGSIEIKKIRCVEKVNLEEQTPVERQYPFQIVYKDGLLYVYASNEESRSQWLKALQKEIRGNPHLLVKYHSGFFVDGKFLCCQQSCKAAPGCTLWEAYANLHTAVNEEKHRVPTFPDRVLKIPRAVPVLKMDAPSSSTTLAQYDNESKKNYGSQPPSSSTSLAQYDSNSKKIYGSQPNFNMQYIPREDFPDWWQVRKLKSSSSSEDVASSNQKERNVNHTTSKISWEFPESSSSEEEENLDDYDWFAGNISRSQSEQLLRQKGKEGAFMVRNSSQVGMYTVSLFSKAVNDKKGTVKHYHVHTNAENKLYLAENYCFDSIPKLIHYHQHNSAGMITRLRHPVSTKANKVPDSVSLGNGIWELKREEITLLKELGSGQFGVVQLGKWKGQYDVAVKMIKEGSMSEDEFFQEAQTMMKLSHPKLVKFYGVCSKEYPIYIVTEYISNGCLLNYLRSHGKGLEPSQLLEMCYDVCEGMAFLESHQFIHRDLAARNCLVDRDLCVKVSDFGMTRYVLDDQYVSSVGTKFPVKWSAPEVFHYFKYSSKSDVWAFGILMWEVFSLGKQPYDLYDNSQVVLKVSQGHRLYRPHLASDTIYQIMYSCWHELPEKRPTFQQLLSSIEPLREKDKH
Chain of UniProt P0DW61 (whole entry, looked up): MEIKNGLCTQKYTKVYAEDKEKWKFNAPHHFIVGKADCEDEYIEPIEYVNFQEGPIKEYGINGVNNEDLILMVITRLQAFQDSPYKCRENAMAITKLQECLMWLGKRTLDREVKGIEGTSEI
Chain of UniProt Q92743 (whole entry, looked up): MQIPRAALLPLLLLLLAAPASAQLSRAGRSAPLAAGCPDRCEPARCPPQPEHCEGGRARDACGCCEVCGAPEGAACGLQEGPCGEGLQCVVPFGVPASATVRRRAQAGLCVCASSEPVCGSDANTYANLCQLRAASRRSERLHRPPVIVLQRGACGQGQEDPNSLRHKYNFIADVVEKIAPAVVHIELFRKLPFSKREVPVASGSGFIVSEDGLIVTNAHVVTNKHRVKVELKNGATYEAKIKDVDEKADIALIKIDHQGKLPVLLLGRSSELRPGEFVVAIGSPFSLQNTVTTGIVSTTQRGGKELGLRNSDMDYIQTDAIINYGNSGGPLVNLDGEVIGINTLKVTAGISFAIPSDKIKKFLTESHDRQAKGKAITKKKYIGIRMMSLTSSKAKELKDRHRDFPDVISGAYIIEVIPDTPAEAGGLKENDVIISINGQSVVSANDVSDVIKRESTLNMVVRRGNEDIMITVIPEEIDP
Chain of UniProt Q13547 (whole entry, looked up): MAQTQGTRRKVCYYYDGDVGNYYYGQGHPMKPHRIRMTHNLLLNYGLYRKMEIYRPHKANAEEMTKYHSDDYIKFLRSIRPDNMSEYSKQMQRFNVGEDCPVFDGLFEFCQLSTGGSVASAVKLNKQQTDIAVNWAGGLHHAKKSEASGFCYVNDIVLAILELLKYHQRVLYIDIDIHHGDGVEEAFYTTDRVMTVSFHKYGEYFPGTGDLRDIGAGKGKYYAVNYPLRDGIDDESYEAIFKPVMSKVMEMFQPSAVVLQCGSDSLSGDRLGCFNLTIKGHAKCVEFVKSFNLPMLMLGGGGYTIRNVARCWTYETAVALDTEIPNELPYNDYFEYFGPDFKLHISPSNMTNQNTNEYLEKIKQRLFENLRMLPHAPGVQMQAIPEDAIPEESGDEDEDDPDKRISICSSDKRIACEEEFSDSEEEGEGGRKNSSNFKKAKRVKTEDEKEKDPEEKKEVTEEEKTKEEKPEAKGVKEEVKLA
Chain of UniProt Q9BRG2 (whole entry, looked up): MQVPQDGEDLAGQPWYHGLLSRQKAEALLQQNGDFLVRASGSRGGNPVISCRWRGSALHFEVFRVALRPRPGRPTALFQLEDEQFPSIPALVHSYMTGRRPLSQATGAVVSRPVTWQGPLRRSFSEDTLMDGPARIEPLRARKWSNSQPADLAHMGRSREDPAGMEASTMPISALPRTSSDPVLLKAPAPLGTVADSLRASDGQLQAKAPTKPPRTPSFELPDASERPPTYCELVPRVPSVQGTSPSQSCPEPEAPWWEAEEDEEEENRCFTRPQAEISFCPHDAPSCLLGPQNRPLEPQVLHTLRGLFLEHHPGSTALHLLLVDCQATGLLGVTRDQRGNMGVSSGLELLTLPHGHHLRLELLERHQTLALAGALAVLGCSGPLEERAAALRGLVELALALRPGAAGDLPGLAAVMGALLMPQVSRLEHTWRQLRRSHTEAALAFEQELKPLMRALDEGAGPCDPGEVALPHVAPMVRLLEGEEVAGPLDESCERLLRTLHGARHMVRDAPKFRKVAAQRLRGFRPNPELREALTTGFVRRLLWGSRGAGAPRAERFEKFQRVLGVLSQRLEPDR
Chain of UniProt Q9NWS0 (51-180, looked up): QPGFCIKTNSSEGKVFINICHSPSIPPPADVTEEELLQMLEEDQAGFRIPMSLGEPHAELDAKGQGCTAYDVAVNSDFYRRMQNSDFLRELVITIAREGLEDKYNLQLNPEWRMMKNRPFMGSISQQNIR

Compound = O[C@@](Cc1ncc(CC2(C(F)(F)F)CC2)[nH]1)(c1ccc(-n2cccn2)cc1)C(F)(F)F; target = BCHE; test = inhibitor, fluorometric; endpoint = IC50; value = 8.68 ± 3.77 µM
Compound = CC(C)C[C@H](NC(=O)[C@H](CC(=O)O)NC(=O)[C@H](COP(=O)(O)O)NC(=O)[C@H](CC(=O)O)NC(=O)[C@H](CO)NC(=O)CNC(=O)[C@H](C)NC(=O)[C@@H](N)Cc1ccc(O)cc1)C(=O)N[C@@H](CC(=O)O)C(=O)N[C@@H](COP(=O)(O)O)C(=O)N[C@@H](CC(=O)O)C(=O)N[C@@H](CC(=O)O)C(=O)N[C@@H](CCC(=O)O)C(=O)N[C@@H](Cc1ccccc1)C(=O)N[C@H](C(=O)N1CCC[C@H]1C(=O)N[C@@H](Cc1ccc(O)cc1)C(N)=O)C(C)C; target = PIH1 domain-containing protein 1, residues 51-180 (PIH1D1, Homo sapiens, UniProt Q9NWS0); test = binding, ITC; conditions = pH 8.0, 20 °C, PIH-N domain; endpoint = Kd; value = 1.5 ± 0.2 µM
Compound = CC(C)C[C@H](NC(=O)[C@H](CC(=O)O)NC(=O)[C@H](CC(=O)O)NC(=O)[C@H](CC(=O)O)NC(=O)[C@@H](NC(=O)[C@H](Cc1c[nH]c2ccccc12)NC(=O)[C@@H](N)CCC(=O)O)[C@@H](C)O)C(=O)N[C@@H](CO)C(=O)N[C@H](C(=O)N[C@@H](CC(C)C)C(=O)N[C@@H](C)C(=O)O)C(C)C; target = Serine protease HTRA1, PDZ domain (Homo sapiens, UniProt Q92743); test = isothermal titration calorimetry; test system = isolated PDZ domain; conditions = pH 8.0; endpoint = Kd; value = 9.8 µM
Compound = CC(C)C[C@H](NC(=O)[C@@H](NC(=O)[C@H](CO)NC(=O)[C@H](CO)NC(=O)[C@@H](NC(=O)[C@H](CC(=O)O)NC(=O)[C@H](CC(C)C)NC(=O)[C@@H]1CCCN1C(=O)[C@H](CO)NC(=O)c1ccc2c(c1)C(=O)OC21c2ccc(N(C)C)cc2Oc2cc(N(C)C)ccc21)[C@@H](C)O)C(C)C)C(=O)N[C@@H](Cc1ccc(OP(=O)(O)O)cc1)C(=O)N[C@H](C(=O)N[C@@H](C)C(=O)N[C@H](C(=O)N[C@@H](CCC(N)=O)C(=O)N1CCC[C@H]1C(=O)N[C@@H](CC(N)=O)C(=O)N[C@@H](CCC(=O)O)C(=O)N[C@@H](CC(=O)O)C(=O)O)C(C)C)[C@@H](C)O; target = Cytoplasmic tyrosine-protein kinase BMX, SH2 domain (BMX, Homo sapiens, UniProt P51813); test = binding; endpoint = Kd; value = 0.744 µM
Compound = Nc1nc2c(ncn2[C@@H]2O[C@@H]3COP(=O)(O)O[C@H]4[C@@H](O)[C@H](n5cnc6c(N)ncnc65)O[C@@H]4COP(=O)(O)O[C@H]4[C@@H](O)[C@H](n5cnc6c(N)ncnc65)O[C@@H]4COP(=O)(O)O[C@H]3[C@H]2O)c(=O)[nH]1; target = tad1 (Metaclostridioides mangenotii, UniProt P0DW61); endpoint = Kd; value = ~0.0201 µM
Compound = CC1=C(C)C(=O)C(C)=C(C)C1=O; target = Reaction center protein M chain, QA site (pufM, Cereibacter sphaeroides, UniProt P0C0Y9); test = QA site binding; test system = LDAO detergent solution; conditions = pH 7.8, 298 K, together with: 1 µM reaction centres; endpoint = Kd; value = 0.8 µM
Compound = Nc1ncnc2c1ncn2[C@@H]1O[C@H](C[C@@H](N)CC[C@H](N)C(=O)O)[C@@H](O)[C@H]1O; target = O-methyltransferase (Sorghum bicolor, UniProt A0A1B6PFV1, W279A); test = isothermal titration calorimetry; conditions = APO; endpoint = Kd; value = 0.88 µM
Compound = CN1C2CCCC1CC(NC(=O)c1nn(C)c3ccccc13)C2 (centres unmarked); target = Soluble acetylcholine receptor (Aplysia californica, UniProt Q8WSF8, K160T/Q74R/S111E/V159L/Y212F); test = homologous radioligand competition; endpoint = Kd; value = 0.298 ± 0.012 µM
Compound = C/C(=N\NC(=O)c1cccc(S(=O)(=O)N2CCN(C)CC2)c1)c1cc(Cl)ccc1O; target = Lysine-specific histone demethylase 1A, N-terminal truncation; with CoREST (KDM1A, Homo sapiens, UniProt O60341); endpoint = Kd; value = ~1.3 µM and 1.3 µM
Compound = Nc1ncnc2c1ncn2[C@@H]1O[C@H](COP(=O)(O)OP(=O)(O)NP(=O)(O)O)[C@@H](O)[C@H]1O; target = N-acetylmannosamine kinase (nanK, Haemophilus influenzae, UniProt Q4QP43, T131V); test = binding; endpoint = Kd; value = 37 ± 5.5 µM
Compound = NCCc1ccc(O)c(O)c1; target = commercial monoclonal antibody; scale = lower = stronger binding; endpoint = Kd; value = 39 ± 6 µM
Compound = CC[C@H](C)[C@H](NC(=O)c1ccc2c(c1)C(=O)OC21c2ccc(N(C)C)cc2Oc2cc(N(C)C)ccc21)C(=O)N[C@@H](CCC(=O)O)C(=O)N[C@@H](CO)C(=O)N[C@@H](CO)C(=O)N[C@@H](CC(N)=O)C(=O)N[C@@H](Cc1ccc(O)cc1)C(=O)N[C@@H](CCSC)C(=O)N[C@@H](C)C(=O)N1CCC[C@H]1C(=O)N[C@@H](Cc1ccc(OP(=O)(O)O)cc1)C(=O)N[C@@H](CC(=O)O)C(=O)N[C@@H](CC(N)=O)C(=O)N[C@@H](Cc1ccc(O)cc1)C(=O)N[C@H](C(=O)N1CCC[C@H]1C(=O)N[C@@H](CO)C(=O)N[C@@H](C)C(=O)N[C@@H](CC(=O)O)C(=O)O)C(C)C; target = RASA1 SH2 domains; test = binding; endpoint = Kd; value = 0.042 µM
Compound = CCC1=C[C@@H]2CN3CCc4c([nH]c5ccccc45)[C@@](C(=O)OC)(C2)[C@@H]13; target = BCHE; test = inhibitor, fluorometric; endpoint = IC50; value = 0.98 ± 0.32 µM
Compound = CSCC[C@H](NC(=O)CNC(=O)[C@H](Cc1ccccc1)NC(=O)[C@H](CC(=O)O)NC(=O)CNC(=O)c1ccc2c(c1)C(=O)OC21c2ccc(N(C)C)cc2Oc2cc(N(C)C)ccc21)C(=O)N[C@@H](CO)C(=O)N[C@@H](CCCNC(=N)N)C(=O)N[C@@H](CC(=O)O)C(=O)N[C@H](C(=O)N[C@@H](Cc1ccc(OP(=O)(O)O)cc1)C(=O)N[C@@H](CO)C(=O)N[C@H](C(=O)N[C@@H](CC(=O)O)C(=O)N[C@@H](Cc1ccc(O)cc1)C(=O)N[C@@H](Cc1ccc(O)cc1)C(=O)N[C@@H](CCCNC(=N)N)C(=O)N[C@H](C(=O)N[C@@H](CC(=O)O)C(=O)O)C(C)C)[C@@H](C)O)C(C)C; target = SH2 domain-containing protein 3A, SH2 domain (SH2D3A, Homo sapiens, UniProt Q9BRG2); test = binding; endpoint = Kd; value = 1.7 µM
Compound = C[C@H]1CN(c2n[nH]c3nc(N[C@H]4CC[C@H](NS(=O)(=O)CCC(F)(F)F)CC4)ncc23)CCO1; target = HDAC1 (Homo sapiens, UniProt Q13547); test = inhibitor, Kinobeads competition profiling; conditions = 0.8 µM; scale = relative to: vehicle; endpoint = relative abundance; value = 1.14
Compound = CC[C@H](C)[C@H](NC(=O)[C@H](Cc1ccc(OP(=O)(O)O)cc1)NC(=O)[C@H](CCC(=O)O)NC(=O)[C@H](Cc1c[nH]cn1)NC(=O)CNC(=O)[C@H](CC(=O)O)NC(=O)[C@H](CO)NC(=O)[C@H](CO)NC(=O)[C@@H](NC(=O)[C@H](CO)NC(=O)[C@H](CCC(=O)O)NC(=O)c1ccc2c(c1)C(=O)OC21c2ccc(N(C)C)cc2Oc2cc(N(C)C)ccc21)C(C)C)C(=O)N[C@@H](Cc1ccc(O)cc1)C(=O)N[C@H](C(=O)N[C@@H](CC(=O)O)C(=O)N1CCC[C@H]1C(=O)N[C@@H](CCSC)C(=O)N[C@@H](CCC(N)=O)C(=O)N[C@@H](CC(=O)O)C(=O)O)C(C)C; target = RASA1 SH2 domains; test = binding; endpoint = Kd; value = 1.63 µM
Compound = O=C(O)CNC(=O)c1cccnc1; target = Protein deacetylase HDAC6, ZnF-UBD domain (HDAC6, Homo sapiens, UniProt Q9UBN7); endpoint = Kd; value = > 1000 µM

Some of these lines once more:
Compound = CC(C)C[C@H](NC(=O)[C@@H](NC(=O)[C@H](CO)NC(=O)[C@H](CO)NC(=O)[C@@H](NC(=O)[C@H](CC(=O)O)NC(=O)[C@H](CC(C)C)NC(=O)[C@@H]1CCCN1C(=O)[C@H](CO)NC(=O)c1ccc2c(c1)C(=O)OC21c2ccc(N(C)C)cc2Oc2cc(N(C)C)ccc21)[C@@H](C)O)C(C)C)C(=O)N[C@@H](Cc1ccc(OP(=O)(O)O)cc1)C(=O)N[C@H](C(=O)N[C@@H](C)C(=O)N[C@H](C(=O)N[C@@H](CCC(N)=O)C(=O)N1CCC[C@H]1C(=O)N[C@@H](CC(N)=O)C(=O)N[C@@H](CCC(=O)O)C(=O)N[C@@H](CC(=O)O)C(=O)O)C(C)C)[C@@H](C)O; target = Cytoplasmic tyrosine-protein kinase BMX, SH2 domain (BMX, Homo sapiens, UniProt P51813); test = binding; endpoint = Kd; value = 0.744 µM
Compound = C/C(=N\NC(=O)c1cccc(S(=O)(=O)N2CCN(C)CC2)c1)c1cc(Cl)ccc1O; target = Lysine-specific histone demethylase 1A, N-terminal truncation; with CoREST (KDM1A, Homo sapiens, UniProt O60341); endpoint = Kd; value = ~1.3 µM and 1.3 µM
Compound = Nc1ncnc2c1ncn2[C@@H]1O[C@H](COP(=O)(O)OP(=O)(O)NP(=O)(O)O)[C@@H](O)[C@H]1O; target = N-acetylmannosamine kinase (nanK, Haemophilus influenzae, UniProt Q4QP43, T131V); test = binding; endpoint = Kd; value = 37 ± 5.5 µM
